Published values collected from several papers.
Each line is one published result; not all experiments were run side by side. “And” joins repeats or separate records; there may be more than shown. ± gives the spread as reported.

Under “abdominal distension incidence”, `CNC(=O)c1ccc(-c2cnc3ncc(Cc4ccc5ncccc5c4)n3n2)cc1F` is recorded as 5% (cancer patients; oral, 600 mg twice daily, all grades RP2D expansion).
`CCN1/C(=C/C(C)=O)Sc2ccc(F)cc21`: “systolic blood pressure” 109 ± 9 mmHg (cynomolgus monkey; oral, 30 mg/kg, 1 h post-dose).
`NC1(C(=O)N[C@@H](CCO)c2ccc(Cl)cc2)CCN(c2nc[nH]c3nccc2-3)CC1` — result for “incidence of Arthralgia”: 0% (metastatic CRPC patients; 320 mg b.i.d., grade 3 to 4, treatment-related, together with: enzalutamide 160 mg daily).
`O=C1c2ccncc2C(=O)c2c1[nH]c1ccccc21` — result for “volume of distribution”: 20.3 ± 6 L (Sprague-Dawley rat male, plasma; intravenous, 5 mg/kg).
For `Nc1ncnc2c1ncn2[C@H]1C[C@@H]2OP(=O)(O)OC[C@H]3O[C@@H](n4cnc5c(N)ncnc54)C[C@@H]3OP(=O)(O)OC[C@H]2O1`, the basophil percentage was 0.45 ± 0.13% (non-tumor-bearing mice, blood; intravenous, 1 mg/kg, toxicity study).
For `C[C@H]1Oc2cc(cnc2N)-c2c(nn(C)c2C#N)CN(C)C(=O)c2ccc(F)cc21`, “free plasma concentration” read 1.4 µM (Balb/c nude mouse female, plasma; 5 mg/kg twice daily for 5 days, 1 h).
For `N#Cc1ccc2c(c1)[C@H]1CCCN(C(=O)c3ccc4[nH]cnc4c3)[C@H]1C2`, the androstenedione level was 7 nmol/L (human, male; 160 mg, end of trial).
Under “stability relative error”, `C=CC(=O)N1CCC([C@@H]2CCNc3c(C(N)=O)c(-c4ccc(Oc5ccccc5)cc4)nn32)CC1` is recorded as 0.3% (rat plasma; 800 ng/mL, three freeze-thaw cycles; relative to: nominal concentration).
Under “subjects with adverse event”, `CC(C)(C(=O)N1CCOc2c(C#N)cncc2C1)C(F)F` is recorded as 0% (measured: Psychiatric disorders; human; oral, 20 mg once daily, 14 days, multiple ascending dose).
For `Cc1cc(NC2CCN(C(=O)OC3CCN(C(=O)/C=C/CN(C)C)C3)CC2)n2ncc(C(C)C)c2n1` (centres unmarked), “patients with TEAE” read 0% (CTCAE v4.0, measured: Dyspnea; patients with advanced solid tumours; oral, dose not given, TIW, grade 3 or higher).
With `O=C(c1nc2n(n1)[C@H](c1ccccc1)C[C@@H]2F)C1CC1` the renal clearance was 0.172 mL/min (geometric mean; human, fasted; 75 mg single dose).
The plasma clearance of `Cc1cnc(N2CC3(CCOCC3)C2)c(C(=O)Nc2ccc(C(=O)N3CCc4cc(C(=O)Nc5c(C)cccc5F)sc4-c4ccccc43)cc2)c1` is reported as roughly 75% (dog; intravenous bolus, 0.1 mg/kg; relative to: hepatic blood flow).
The accuracy of `COc1cc([C@H]2OC[C@H]3[C@@H]2CO[C@@H]3c2ccc(O[C@@H]3O[C@H](CO)[C@@H](O)[C@H](O)[C@H]3O)c(OC)c2)ccc1O[C@@H]1O[C@H](CO)[C@@H](O)[C@H](O)[C@H]1O` is reported as 117% (post-procedure stability; rat plasma; 200 ng/mL, 3 h, room temperature).
Under “device site dermatitis incidence”, `Cc1cc(-c2nccc3c2ccn3CC(=O)Nc2ccc(-c3cnccn3)cn2)ccn1` is recorded as 16.7% (healthy human volunteers; oral, 20 mg single dose, single ascending dose).
`C[Si]1(C)O[Si](C)(C)O[Si](C)(C)O[Si](C)(C)O1`: “whole-body biotransformation rate constant” 0.018 day⁻¹ and 0.009 day⁻¹ and 0.011 day⁻¹ (IVIVE from S9; rainbow trout (Oncorhynchus mykiss)).
`Cc1c(-c2ccc(N3CCc4cccc(C(=O)Nc5nc6ccccc6s5)c4C3)nc2C(=O)O)cnn1CC12CC3(C)CC(C)(C1)CC(OCCNCC[C@H](O)CO)(C3)C2` — result for “dP/dt at 50 change”: -26% (beagle dog, male, anaesthetised; intravenous infusion, 0.3 mg/kg/min, 60 min; relative to: vehicle).
For `COCc1cc(C(=O)Nc2cc([C@H]3CC[C@@H](OC(=O)NC(C)C)C3)[nH]n2)n(C)n1`, the AUC(0-24h) was 3.53 µM·h (OVCAR-3 xenograft, NOD/SCID gamma mice, plasma; oral, 25 twice daily, tumour growth inhibition study).
The tissue uptake of `COc1cccc(OC)c1-c1cc(C(=O)NC2(C(=O)O)C3CC4CC(C3)CC2C4)nn1-c1ccc(C(=O)N(C)CCCN(C)CCCN(C)C(=O)CN2CCN(CC(=O)[O-])CCN(CC(=O)[O-])CCN(CC(=O)[O-])CC2)cc1C(C)C.[177Lu+3]` (centres unmarked) is reported as 2.8 %ID/g (mouse, HT-29 xenograft, spleen; 4 h post injection).
Under “free plasma concentration”, `C/C(O)=C(\C#N)C(=O)Nc1ccc(C(F)(F)F)cc1` is recorded as 129 ± 36.6 µM (CD-1 mice female, plasma; oral, 10 mg/kg leflunomide daily, 8 h).
`Cn1cc(-c2cn3nccc3c(-c3cnn([C@]4(CC#N)C[C@@H](C#N)C4)c3)n2)cn1`: “amount excreted unchanged in urine” 3.1 mg (human, urine; oral, 400 mg once daily, day 10, dosing interval geometric mean).
Under “grade ≥3 Syncope patients”, `COc1cc2nccc(Oc3ccc(NC(=O)c4cc5c(n(-c6ccccc6)c4=O)CCCC5=O)nc3)c2cc1OC` is recorded as 15% (relapsed or refractory AML; oral, all dose levels).
`CN1C(=O)[C@@H](NC(=O)c2nnc(Cc3ccccc3)[nH]2)COc2cccnc21` has a Tmax of 3 h (healthy human, fasted, plasma; oral, 10 mg single dose, median).
`O=C(OC(C(F)(F)F)C(F)(F)F)N1CCN(Cc2cccc(Oc3ccccc3)c2)CC1` has a Ktrans of 0.0049 min⁻¹ (PET blocking study; rhesus monkey, brain Pons; 0.03 mg/kg, compound pretreatment, together with: [18F]T-401 tracer).
The remaining compound of `CC(C)[N+](C)(CCOC(=O)C1c2ccccc2Oc2ccccc21)C(C)C` is reported as 82.8% (mouse, CD-1, both sexes, whole blood; 5 µM, 15 min).
For `CC(C)c1nc(N(C)S(C)(=O)=O)nc(-c2ccc(F)cc2)c1/C=C/[C@@H](O)C[C@@H](O)CC(=O)O`, “central volume of distribution” read 153 L (population pharmacokinetic model; people living with HIV; oral, dose not given).
`[18F]c1ccc(-c2ccc3c(c2)[nH]c2ccncc23)cn1` gave an SUV of 0.948 ± 0.45 (microPET/CT imaging; APP/PS1 mouse, AD model, heart; intravenous, 20 min).
For `C[Si](C)(C)O[Si](C)(C)C`, “entropy of phase change” read 0.225 kJ/(mol·K) (air/water; concentration not given).
`C=CC(=O)NC1CCN(c2ncc3ncnc(Nc4ccc(Oc5ccc6c(c5)ncn6C)c(C)c4)c3n2)CC1` gave a blood-to-plasma ratio of 0.934 (measured: total radioactivity; healthy male human, whole blood and plasma; oral, 60 mg, 0.5 h, geometric mean).
`CNCCOC12CC3(C)CC(C)(CC(Cn4ncc(-c5ccc(N6CCc7cccc(C(=O)Nc8nc9ccccc9s8)c7C6)nc5C(=O)O)c4C)(C3)C1)C2` — result for “systemic vascular resistance change”: 89% (anaesthetised male beagle dogs; intravenous bolus, 0.03 mg/kg, 120 min; relative to: baseline).
For `Cc1ccc(C(=O)N(CCCN)C(c2nc3snc(C)c3c(=O)n2Cc2ccccc2)C(C)C)cc1` (centres unmarked), “patients with adverse event” read 0% (stomatitis grade ≥3 (CTCAE); human patients; intravenous, 10 mg/day).
For `C[C@@H](Oc1ccc(S(C)(=O)=O)cc1C(=O)N1C[C@@H]2C[C@]2(c2cc(C(F)(F)F)on2)C1)C(F)(F)F`, “renal clearance at steady state” read 7.83 mL/min (elderly humans, urine; oral, 50 mg once daily, 0-24 h, multiple dose, geometric mean).
For `C=C[C@@](C)(/C=C/c1ccc(O)cc1)CCC=C(C)C`, the accuracy was 84.3% (three freeze-thaw cycles; rat plasma; 200 ng/mL, -70 °C freeze).
`c1ccc2cc3ccccc3cc2c1`: “literature range factor” 5 (PDMS-water partitioning; PAH compilation; relative to: maximum over minimum K).
`CCc1cc(C(=O)NC)c2nccc(N3CCc4c(cc(Cn5ccnc5)cc4-c4cn(C)nc4C(F)(F)F)C3=O)c2c1` — result for “serum LDL change”: 6.5% (Sprague Dawley rats; oral, 50 mg/kg once daily, 7 days; relative to: vehicle).
`Cc1nc2cccc(OCC(C)(C)C(=O)NC(C)C)c2c(N)c1C(=O)O`: “micronucleated PCE per 14000 PCE” 5 (male Swiss albino CD-1 mouse, bone marrow; oral, 500 mg/kg, 24 h).
`Cl.[2H]C([2H])([2H])CC(=O)c1cnc(NC(=O)C2CC2)cc1Nc1cccc(-c2ncn(C([2H])([2H])[2H])n2)c1OC` gave a renal clearance of 0.89 to 1.68 mL/min (human; oral, 50 mg, single and multiple dose, geometric mean range).
Under “total bilirubin change”, `CN(CCC(=O)O)C(=O)c1ccc2c(c1)CC[C@@H]1[C@@H]2CC[C@]2(C)C(c3cncc(F)c3)=CC[C@@H]12` is recorded as 0.5 mg/dL (premenopausal women, endometriosis pain, serum; 60 mg twice daily, visit 6, median; relative to: baseline).
`Cc1cc(Nc2cc3ncccc3c(N[C@@H]3C[C@H]4CC[C@@H](C3)N4CCC#N)n2)n[nH]1` — result for “subjects with contact dermatitis”: 0% (healthy human; oral, 100 mg multiple doses, 14 days).

A few entries again:
Under “device site dermatitis incidence”, `Cc1cc(-c2nccc3c2ccn3CC(=O)Nc2ccc(-c3cnccn3)cn2)ccn1` is recorded as 16.7% (healthy human volunteers; oral, 20 mg single dose, single ascending dose).
`c1ccc2cc3ccccc3cc2c1`: “literature range factor” 5 (PDMS-water partitioning; PAH compilation; relative to: maximum over minimum K).
`CNCCOC12CC3(C)CC(C)(CC(Cn4ncc(-c5ccc(N6CCc7cccc(C(=O)Nc8nc9ccccc9s8)c7C6)nc5C(=O)O)c4C)(C3)C1)C2` — result for “systemic vascular resistance change”: 89% (anaesthetised male beagle dogs; intravenous bolus, 0.03 mg/kg, 120 min; relative to: baseline).
